Experimental data gathered from unrelated publications.
Compare with care: the assays were run in different laboratories. Several values in a cell are separate wells, animals, samples, runs or records. ± marks the error that the study gave.
USP5: Ubiquitin carboxyl-terminal hydrolase 5 (USP5, Homo sapiens, UniProt P45974)
CASP9: Caspase-9 (CASP9, Homo sapiens, UniProt P55211)
Lysophospholipase-like protein 1: Lysophospholipase-like protein 1 (Mus musculus, UniProt Q3UFF7)

SMILES | target or system | assay | test system | setting | how to read | measurement | value
CC(=O)N[C@@H](CCCNC(=N)N)C(=O)N[C@H](C(=O)N[C@@H](CCCCN)C(=O)N[C@@H](CO)C(=O)N[C@@H](CCCNC(=N)N)C(=O)N[C@H](C(=O)N[C@@H](Cc1c[nH]c2ccccc12)C(=O)N[C@@H](C)C(=O)N[C@@H](Cc1ccccc1)C(N)=O)[C@@H](C)OP(=O)(O)O)[C@@H](C)O | 14-3-3 protein epsilon (Homo sapiens, UniProt P62258) | thermal stability, DSF | – | 30 µM, pH 7.4 | – | ΔTm | 5.19 °C
NS(=O)(=O)c1ccc(CN2C(=O)c3ccc(N4CCOCC4)cc3C2=O)cc1 | Carbonic anhydrase 2 (CA2, Homo sapiens, UniProt P00918) | binding | – | – | – | emission maximum | 534 nm
CC[C@H](C)[C@H](NC(=O)[C@H](Cc1ccccc1)NC(=O)[C@H](CCC(=O)O)NC(=O)[C@H](CCCCN)NC(=O)[C@H](C)NC(=O)[C@H](C)NC(=O)[C@H](CCC(N)=O)NC(=O)CNC(=O)[C@H](CCC(=O)O)NC(=O)[C@H](CC(C)C)NC(=O)[C@H](Cc1ccc(O)cc1)NC(=O)[C@H](CO)NC(=O)[C@H](CO)NC(=O)C(C)(C)NC(=O)[C@H](CC(=O)O)NC(=O)[C@H](CO)NC(=O)[C@@H](NC(=O)[C@H](Cc1ccccc1)NC(=O)[C@@H](NC(=O)CNC(=O)[C@H](CCC(=O)O)NC(=O)[C@H](C)NC(=O)[C@@H](N)Cc1c[nH]cn1)[C@@H](C)O)[C@@H](C)O)C(=O)N[C@@H](C)C(=O)N[C@@H](Cc1c[nH]c2ccccc12)C(=O)N[C@@H](CC(C)C)C(=O)N[C@H](C(=O)N[C@@H](CCCCN)C(=O)NCC(=O)N[C@@H](CCCNC(=N)N)C(N)=O)C(C)C | Glucagon-like peptide 1 receptor (GLP1R, Homo sapiens, UniProt P43220) | cAMP production, agonist, GloSensor luminescence | HEK293 | 15 min | relative to: GLP-1 | efficacy | 102 ± 2%
C=CC[C@H]1OC(=O)CCNC(=O)[C@H](C)N(C)C(=O)[C@H]([C@@H](C)CC)N(C)C(=O)[C@H]([C@@H](C)CC)NC(=O)[C@@H]2[C@@H](C)CCN2C1=O | Platelet-derived growth factor receptor beta, extracellular domain (PDGFRB, Homo sapiens, UniProt P09619) | SPR, van't Hoff | – | 25 °C | – | ΔH˚ | -2.28 kcal/mol
CC[C@H](C)[C@@H]1NC(=O)[C@H](Cc2ccccc2)NC(=O)[C@H](CCC(=O)O)NC(=O)[C@H](CCCNC(=N)N)NC(=O)CNC(=O)[C@@H](NC(=O)[C@H](CC(C)C)NC(=O)[C@H](CCCNC(=N)N)NC(=O)[C@@H](NC(=O)CNC(=O)[C@H](Cc2ccc(O)cc2)NC(=O)[C@@H]2CCCN2C(=O)[C@H](C)NC(=O)[C@H](C)NC(=O)[C@@H](N)CCCNC(=N)N)C(C)C)CSSC[C@@H]2NC(=O)[C@@H](NC(=O)[C@H](CO)NC(=O)[C@H](CO)NC(=O)[C@H](CO)NC(=O)[C@H](CC(C)C)NC(=O)CNC(=O)[C@H](C)NC(=O)[C@H](CC(C)C)NC(=O)[C@@H](NC(=O)[C@@H](N)CC(=O)O)C(C)C)CSSC[C@H](NC(=O)CNC(=O)[C@H](Cc3c[nH]c4ccccc34)NC(=O)[C@H](CCCCN)NC2=O)C(=O)N[C@@H](CO)C(=O)N[C@@H](CCCCN)C(=O)N[C@@H](CO)C(=O)N[C@@H](CCC(=O)O)C(=O)N[C@@H]([C@@H](C)CC)C(=O)N[C@@H](CO)C(=O)N[C@@H](CO)C(=O)N[C@@H](CC(C)C)C(=O)N[C@H](C(=O)O)CSSC[C@@H](C(=O)NCC(=O)NCC(=O)N[C@@H](CO)C(=O)N[C@@H](CCCNC(=N)N)C(=O)N[C@@H](Cc2c[nH]c3ccccc23)C(=O)O)NC(=O)[C@H]([C@@H](C)O)NC(=O)[C@H](Cc2ccccc2)NC(=O)[C@H]([C@@H](C)CC)NC(=O)[C@H](C(C)C)NC(=O)[C@H](C)NC(=O)[C@H](CCCNC(=N)N)NC1=O | Relaxin-3 receptor 2 (RXFP4, Homo sapiens, UniProt Q8TDU9, R208A) | – | – | R208A mutant | relative to: wild type | ΔpEC50 | inactive
C=CC(=O)N1CCCC(n2c(=O)c3ncccc3n(Cc3ccc(Oc4ccccc4)cc3)c2=O)C1 (stereo not drawn) | RNA cytosine C(5)-methyltransferase NSUN2 (NSUN2, Homo sapiens, UniProt Q08J23) | thermal proteome profiling | cell proteome | unit not given | relative to: vehicle | melting temperature shift | -5.43
CC(=O)Nc1cc(OC(C)=O)c2nonc2c1OC(C)=O | USP5 | enzyme activity, inhibitor | – | 17 µM | – | inhibition | 70%
CC(=O)N[C@@H](CC(=O)O)C(=O)N[C@@H](Cc1ccc2ccccc2c1)C(=O)N[C@@H](C)C(=O)N[C@@H](CC(=O)O)C(=O)COC(=O)c1c(C)cccc1C | CASP9 | enzyme activity, inhibitor | – | – | – | kinact/KI | 24300 M⁻¹ s⁻¹
CN(Cc1cc(C2CC2)on1)C(=O)c1cccc(-c2ccc3c(c2)CCO3)c1 | Acetyl-coenzyme A synthetase, cytoplasmic (ACSS2, Homo sapiens, UniProt Q9NR19) | enzyme activity, inhibitor, coupled pyrophosphate | – | 1.56 µM | higher is more activity | reaction rate | 0.00334 a.u.
Cc1nc2ccc(S(=O)(=O)n3nc(SCc4ccc(Cl)cc4)nc3N)cc2s1 | Lysophospholipase-like protein 1 | enzyme activity, activator, gel-based ABPP | purified protein | concentration not given, together with: FP-rhodamine | relative to: DMSO | probe labeling increase | 2.8 fold
COC1=C(N2CCOCC2)C(=O)c2ccccc2C1=O | USP5 | enzyme activity, inhibitor | – | 17 µM | – | inhibition | 16%
CC[C@H](NC(=O)[C@H](CC(C)C)NC(=O)[C@H](CC(=O)O)NC(C)=O)C(=O)N[C@@H](CC(=O)O)C(=O)COC(=O)c1c(C)cccc1C | CASP9 | enzyme activity, inhibitor | – | – | – | kinact/KI | 22200 M⁻¹ s⁻¹
CCCCCCCCCCCCCCCC(=O)OCC(CSC[C@H](N)C(=O)N[C@@H](CO)C(=O)N[C@@H](CCCCN)C(=O)N[C@@H](CCCCN)C(=O)N[C@@H](CCCCN)C(=O)N[C@@H](CCCCN)C(=O)NCCCCCC(=O)N[C@@H](CCCCN)C(=O)N[C@@H](CC(C)C)C(=O)N[C@H](C(=O)N[C@@H](Cc1ccccc1)C(=O)N[C@@H](Cc1ccccc1)C(=O)N[C@@H](Cc1ccc2ccccc2c1)C(=O)O)C(C)C)OC(=O)CCCCCCCCCCCCCCC (stereo partly drawn) | Amyloid-beta precursor protein, fibrillar amyloid-beta (APP, Homo sapiens, UniProt P05067) | TEM | – | 2.0 eq, 8 h, fibril 1, together with: APP 20 µM | – | fibril diameter | 35.1 nm
CCN(CC)C(=O)c1ccc(O)c(OC)c1 | Heat shock protein HSP 90-alpha, N-terminal domain (HSP90AA1, Homo sapiens, UniProt P07900) | binding, ligand-observed NMR titration | – | 9.96 µM, ligand to protein ratio 125 | – | bound ligand fraction | 0.49
CCCCCC(O)/C=C/C=O (stereo not drawn) | Tubulin-specific chaperone D (Homo sapiens, UniProt Q9BTW9) | competitive isoTOP-ABPP, refers to: TBCD cysteine peptide | Ramos soluble proteome | 100 µM, together with: iodoacetamide probe | relative to: DMSO over compound-treated, higher = stronger cysteine blockade | isoTOP-ABPP competition ratio | 1.6
CC[C@H](C)[C@H](NC(=O)[C@H](CC(=O)O)NC(C)=O)C(=O)N[C@H](C(=O)N[C@H](C(=O)N[C@@H](CCCNC(=N)N)C(=O)N[C@@H](Cc1ccc(O)cc1)C(=O)N[C@@H](CC(N)=O)C(=O)NCC(=O)N[C@@H](CCCCN)C(=O)N[C@H](C(=O)N[C@@H](Cc1c[nH]c2ccccc12)C(=O)N[C@@H](Cc1c[nH]c2ccccc12)C(=O)N[C@@H](CCCNC(=N)N)C(=O)O)C(C)C)[C@@H](C)O)[C@@H](C)O | Insulin (INS, Bos taurus, UniProt P01317) | circular dichroism | INS-peptide complex | 0 min, initial stage, together with: INS 350 µM | – | α-helix content | 53%
CCCCCC=CC=C1C(=O)C=CC1CC=CCCCC(=O)O (stereo not drawn) | Adenosine kinase (ADK, Homo sapiens, UniProt P55263) | competitive isoTOP-ABPP | Ramos soluble proteome | 100 µM, together with: iodoacetamide probe | relative to: DMSO over compound-treated, higher = stronger cysteine blockade | isoTOP-ABPP competition ratio | 1.1
CC(C)=CCC/C(C)=C/CC/C(C)=C/CC/C(C)=C/COP(=O)(O)OP(=O)(O)O | geranylgeranyltransferase type-I (Rattus norvegicus, UniProt P53610+Q04631) | substrate, fluorescence anisotropy | – | isoprenoid Km, together with: FAM-RhoA peptide | – | Km | 0.016 µM
Cc1nc2ccc(S(=O)(=O)n3nc(CCc4ccc(Cl)cc4)nc3N)cc2s1 | Lysophospholipase-like protein 1 | enzyme activity, activator, gel-based ABPP | purified protein | concentration not given, together with: FP-rhodamine | relative to: DMSO | probe labeling increase | 2 fold
O=C1c2sc(-c3ccc(N4CCC(CO)CC4)nc3F)nc2CCN1c1cccnc1 | TAR DNA-binding protein 43, aggregated (TARDBP, Homo sapiens, UniProt Q13148) | radioligand binding | control brain sarkosyl-insoluble extract | 1.29 nM | – | specific binding | -9 pM
N#CN1CC[C@H](C(=O)Nc2nc3c(s2)CN(C(=O)Cn2cc(CNC(=O)CCCC[C@@H]4SC[C@@H]5NC(=O)N[C@@H]54)nn2)CC3)C1 | Tubulin alpha-1B chain (Homo sapiens, UniProt P68363) | probe binding, affinity probe, neutravidin pull-down LC-MS/MS | HEK293T, cell lysate | 5 µM, 1 h, mean of three replicates, unit not given | higher = more pulled down | iBAQ abundance | 4.27e+08
O=C1N/C(=N\c2ccc(F)cc2C(=O)O)S/C1=C\c1ccccc1 | Dihydroorotate dehydrogenase (quinone), mitochondrial (DHODH, Homo sapiens, UniProt Q02127) | enzyme activity, inhibitor, DCIP reduction | – | 1 µM | higher = more activity | reaction rate | -29.1 a.u.
CC(=O)N[C@@H](CC(=O)O)C(=O)N[C@@H](CCCC(=O)O)C(=O)N[C@@H](CC(C)C)C(=O)N[C@@H](CC(=O)O)C(=O)COC(=O)c1c(C)cccc1C | CASP9 | enzyme activity, inhibitor | – | – | – | kinact/KI | 9100 M⁻¹ s⁻¹
CC(C)CC(=O)Nc1ccc([C@H]2[C@@H](F)[C@@H](F)C[C@@H](F)[C@H]2F)cc1 | – | liver microsome stability | cynomolgus liver microsomes | 1 µM | – | hepatic clearance | 4.9 mL/min/kg
CC(=O)N[C@@H](CC(=O)O)C(=O)N[C@@H](CCC(=O)O)C(=O)N[C@H](C(=O)N[C@@H](CC(=O)O)C(=O)COC(=O)c1c(C)cccc1C)[C@@H](C)OCc1ccccc1 | Caspase-4 (CASP4, Homo sapiens, UniProt P49662) | enzyme activity, inhibitor | – | – | – | kinact/KI | 8200 M⁻¹ s⁻¹
CCN(CC)C(CO)c1cccc2c(C)c(C)oc12 (stereo not drawn) | Lysophosphatidic acid receptor 1 (LPAR1, Homo sapiens, UniProt Q92633, W271A) | G-protein dissociation, agonist, NanoBiT | HEK-293T | 10 pM, W271A mutant | relative to: baseline luminescence | fold change | 1.05 and 1.01 and 1 and 0.972
CC(=O)N[C@@H](C(=O)N[C@@H](CCCC(=O)O)C(=O)N[C@@H](CCC1CCCCC1)C(=O)N[C@@H](CC(=O)O)C(=O)COC(=O)c1c(C)cccc1C)C1CCCCC1 | CASP9 | enzyme activity, inhibitor | – | – | – | kinact/KI | 82500 M⁻¹ s⁻¹
CC(=O)ON=C1Sc2ccccc2C1=O | USP5 | enzyme activity, inhibitor | – | 17 µM | – | inhibition | 33%
CC(=O)N[C@@H](CC(C)C)C(=O)N[C@H](C(=O)N[C@@H](C)C(=O)N[C@@H](CC(=O)O)C(=O)COC(=O)c1c(C)cccc1C)C(C)(C)C | CASP9 | enzyme activity, inhibitor | – | – | – | kinact/KI | 242000 M⁻¹ s⁻¹
Cc1cc(C)cc(COc2cc3c(cc2OCc2cc(C)cc(C)c2)C2CC(O)(Cc4cn(CCOCCOCCNC(=O)CCCCC5SCC6NC(=O)NC65)nn4)CC(C)N2CC3)c1 (stereo not drawn) | ATP synthase F(1) complex subunit beta, mitochondrial (ATP5F1B, Homo sapiens, UniProt P06576) | biotinylated probe pull-down | – | 10 µM probe | relative to: heavy over light | SILAC ratio | 1.68

Excerpt of the above:
SMILES | target or system | assay | test system | setting | how to read | measurement | value
CC(=O)N[C@@H](C(=O)N[C@@H](CCCC(=O)O)C(=O)N[C@@H](CCC1CCCCC1)C(=O)N[C@@H](CC(=O)O)C(=O)COC(=O)c1c(C)cccc1C)C1CCCCC1 | CASP9 | enzyme activity, inhibitor | – | – | – | kinact/KI | 82500 M⁻¹ s⁻¹
Cc1nc2ccc(S(=O)(=O)n3nc(SCc4ccc(Cl)cc4)nc3N)cc2s1 | Lysophospholipase-like protein 1 | enzyme activity, activator, gel-based ABPP | purified protein | concentration not given, together with: FP-rhodamine | relative to: DMSO | probe labeling increase | 2.8 fold
CCCCCC(O)/C=C/C=O (stereo not drawn) | Tubulin-specific chaperone D (Homo sapiens, UniProt Q9BTW9) | competitive isoTOP-ABPP, refers to: TBCD cysteine peptide | Ramos soluble proteome | 100 µM, together with: iodoacetamide probe | relative to: DMSO over compound-treated, higher = stronger cysteine blockade | isoTOP-ABPP competition ratio | 1.6
